Measurements from different studies.
Lines come from different studies, so protocols differ. Values joined by “and” are separate records of one study, mostly repeats; a detail may differ. ± marks the error that the study gave.

The IC50 of CCCCN1C[C@H](O)[C@@H](O)[C@@H](O)[C@H]1CO is reported as 4.6 µM (sample C patient fibroblasts; Gb3 level lowering, LC-MS/MS, measured: Gb3 d18:1/16:0; 216 h).
CCCCCCCCCCCCCCCCCCOc1ccc(CC(=O)OCC[N+](C)(C)C)cc1: “mean growth inhibition” 5.31% (NSCLC panel (nine cell lines); 10 µM).
CN(C)CCCC1(c2ccc(F)cc2)OCc2cc(C#N)ccc21 (stereo not shown) has a specificity ratio of 6.24 (SH-SY5Y; neurite outgrowth; nominal concentration; relative to: IC10 over EC10).
For Cc1nn(-c2nc3c(F)cc(F)cc3s2)c(O)c1C(c1ccc(C(F)(F)F)cc1)c1c(C)nn(-c2nc3c(F)cc(F)cc3s2)c1O, “IFNB1 mRNA level” read 0.384 and 0.393 and 0.395 (RAW-ISG; RT-qPCR; 5 µM, 312 h, unit not given, together with: HT-DNA; relative to: DMSO).
[Cl-].[Cl-].[Os+2].c1cnc2c(c1)ccc1cccnc12.c1cnc2c(c1)ccc1cccnc12.c1cnc2c(c1)ccc1cccnc12 gave a TGI of 253 µM (SK-MEL-28; cell growth, SRB; dark, 1% O2 hypoxia).
Under “Bliss synergy score”, COc1cc2ncnc(Nc3ccc(Oc4ccccc4)c(C)c3C)c2cc1OC.Cl is recorded as 73.5% (SW-620 (KRAS G12V); resazurin; concentration not given, 72 h, together with: trametinib; direction not given).
COc1ccc(-n2nc(C(C)=O)s/c2=N\N=C(/C)c2ccc(NC(=O)c3ccc(C)cc3)cc2)cc1 gave a toxicity of 97.3% (HepG2; 10 µM).
Under “mean growth inhibition”, CCCCCCCCCCCCCCCCCCOc1ccc(CC(=O)OCC[N+](CC)(CC)CC)cc1 is recorded as 17.9% (NSCLC panel (nine cell lines); 10 µM).
Under “log2 fold change”, Nc1ncnc2c1ncn2[C@@H]1O[C@H](CO)[C@@H](O)[C@H]1O is recorded as 2.7 and 1.9 (activated human T cells; measured: hypoxanthine; 30 µM; relative to: DMSO).
Cn1cc(Nc2nccc(-c3ccc4c(c3)CN(C3COC3)CC[C@H]4NC(=O)c3cn(C(C)(C)C)nn3)n2)cn1: “pathway activation z-score” 1.67 (mouse splenic B cells; measured: IL-2 signalling; 30 mg/kg, IgD-activated in vivo; relative to: vehicle, direction not given).
CCCCCCCCCCCCCCCCCCOc1ccccc1CC(=O)OCCC[N+](C)(C)C: “mean growth inhibition” 37.2% (NSCLC panel (nine cell lines); 10 µM).
CCn1cc(-c2cc(Cn3ccnc3)cc3c2CCN([C@H](c2cc(OC)ccn2)C2CC2)C3=O)c(C(F)(F)F)n1 gave an EC50 of greater than 30 µM (DLD-1; cell growth, inhibitor; 120 h).
For Nc1ncnc2nc(-c3ccc(N4CCOCC4)nc3)cc(-c3cccc(Br)c3)c12, “T cell proliferation” read 89.6% and 96.2% and 90.9% (activated human T cells; human; 1 µM).
With COc1ccc(-c2ccc3c(N4CCOC[C@@H]4C)nc(N4CCOC[C@@H]4C)nc3n2)cc1CO the cell growth was 79.6% (SNU-1040; 0.33 µM, 72 h, 100% DMSO; relative to: vehicle).
The EC50 of COc1cnc2cccc(N3CCc4c(cc(Cn5ccnc5C)cc4-c4cn(C)nc4C(F)(F)F)C3=O)c2c1 is reported as greater than 30 µM (RMUGS; cell growth; 120 h).
Nc1cccc2c1C(=O)N(C1CCC(=O)NC1=O)C2=O (stereo not shown) gave a viability of 43% and 41% and 39% (MM1.S resistant to compound; XTT; 1.2 µM).
CCCCc1oc2ccc(NS(C)(=O)=O)cc2c1C(=O)c1ccc(OCCCN(CCCC)CCCC)cc1 has a fold change of 1.9 fold (human embryonic stem cell aggregates; mRNA level, microarray, measured: MAP6; 0.5 µM, 120 h; relative to: untreated, up-regulated).
O=c1ccn([C@@H]2O[C@H](CO)[C@@H](O)[C@H]2O)c(=O)[nH]1: “T cell proliferation” 111% and 104% and 109% and 99.4% (activated human T cells; concentration not given, together with: adenosine; relative to: DMSO).
With Clc1nc(NCc2ccco2)c2[nH]cnc2n1 the ΔPSI was -0.201 (iPSC-derived cardiomyocytes; RNA-seq, measured: RTEL1-TNFRSF6B chr20 exon ending 63689648; unit not given; relative to: DMSO minus compound).
The fold change of C=Cc1c2[n-]c(c1C)/C=c1\[n-]/c(c(C)c1C=C)=C\c1[n-]c(c(CCC(=O)O)c1C)/C=c1\[n-]c(c(C)c1CCC(=O)O)=C2.[Sn+4] is reported as 2.85 (SH-SY5Y; RNA-seq, measured: IL4R mRNA; 5 µM, 5 h; relative to: untreated cells).
O=c1[nH]nc(OCCCc2ccc(Cl)cc2)c(NCc2cccnc2)c1Br — result for “log2 fold change”: 1.43 (HEK293T; RNA-seq, measured: SLC1A4 mRNA; 10 µM, 6 h; relative to: vehicle).
With COc1ncccc1CN[C@@H]1C[C@H]1c1ccccc1 (racemic) the GI50 was greater than 50 µM (THP-1 cells expressing NTR; MTS; 72 h).
CC1(C)CCC(CN2CCN(c3ccc(C(=O)NS(=O)(=O)c4ccc(NCC5CCOCC5)c([N+](=O)[O-])c4)c(Oc4cnc5[nH]ccc5c4)c3)CC2)=C(c2ccc(Cl)cc2)C1 gave a necrotic cells of 0.1% (KCL-22; annexin V/PI flow cytometry, measured: annexin V-/PI+; 3.2 µM, 24 h).
With C=CS(=O)(=O)Nc1ccc(OC)c(-c2c[nH]c3ncc(-c4cncc(C(=O)N(C)C)c4)cc23)c1 the GI50 was greater than 1 µM (Ba/F3 BCR-ABL wild type; cell proliferation; 72 h).
For Nc1ccn([C@@H]2O[C@H](CO)[C@@H](O)[C@H]2O)c(=O)n1, “T cell proliferation” read 108% and 102% and 101% and 105% and 100% (activated human T cells; concentration not given; relative to: DMSO).
For CCCCc1nc(Cl)c(CO)n1Cc1ccc(-c2ccccc2-c2nn[nH]n2)cc1, “log2 fold change” read 2.4 (human PBMC; RNA-seq, measured: DNER mRNA; 10 µg/mL, 24 h; relative to: untreated control).
With CC(C)NCC(O)c1ccc(O)c(O)c1 (stereo not shown) the sarcomere length was 1.8 µm (mouse ventricular cardiomyocytes; dose not given, 0.247 s).
COc1ncc(-c2ccc3nccc(-c4ccnnc4)c3c2)cc1NS(=O)(=O)c1ccc(F)cc1F gave a cell growth of 63.1% (SNU-1040; 0.33 µM, 72 h, 100% DMSO; relative to: vehicle).
CC(C)(c1ccc(O)cc1)c1ccc(O)cc1 — result for “S phase cells”: 7.42 ± 1.41% (HepG2 spheroids; Hoechst flow cytometry; 0.1 µM, 24 h).
O=C(/C=C/C=C/C=C/C1CCCCC1)NC1=C[C@@](O)(/C=C/C=C/C=C/C(=O)NC2=C(O)CCC2=O)[C@@H]2O[C@@H]2C1=O has a GI50 of 28.8 µM (SUM52PE; cell growth, CellTiter-Glo; 78 h).
Cn1cc(-c2ccc(-c3cncc(Cl)c3N3CCC4(CCNC4=O)CC3)cc2)cn1 — result for “log2 fold change”: 2.13 (COLO 205; gene expression, microarray, measured: ZNF548 mRNA; concentration not given, 2 h; relative to: untreated cells).
For C[C@H](Nc1ccc2c(c1)OCCn1cc(N3C(=O)OC[C@H]3C(F)F)nc1-2)C(N)=O, “Hill coefficient GR curve” read 0.893 (MFM-223; cell growth, CellTiter-Glo; 120 h).
COc1cc(/C=C/C(=O)N2CCC=CC2=O)cc(OC)c1OC gave a mRNA level of 155 ± 133% (MDA-MB-468; qRT-PCR, measured: MAPK10; 30 µM, 6 h; relative to: time zero).
The luminescence signal of Cn1cc(-n2cnc3c(NCc4nc5cc(Cl)c(Cl)cc5[nH]4)nc(N4CCOCC4)nc32)cn1 is reported as 291000 a.u. and 247000 a.u. and 282000 a.u. (MDA-MB-231; cell viability, CellCounting-Lite; 24.69 nM, 37 °C; higher = more viable cells).
O=C1[C@H]2CCCN2[C@H](c2cccc3c2OCO3)N1c1ccc(Cl)c(Cl)c1 (racemic) — result for “mutant huntingtin protein level”: “no effect” (PC-12; 50 µM, 2 days).
With O=C(C[C@@H](C(F)F)n1ccc(F)n1)N1CCC(O)(Cn2cnc3c(cnn3-c3ccc(F)cc3)c2=O)CC1 the viability was 15.7% (CHP-212 USP7 V517F knock-in clone; SRB; 20 µM).
FC(F)(F)C1=C/C(=C\CCCCCCOCc2ccccc2)c2cc3c(cc21)OCO3 — result for Nrf2 stabilization: “no effect” (MM1.S bortezomib-resistant; Western blot; 0.5 µM, 8 h).
With COc1cc(C(=O)c2nc(-c3cccc4[nH]ccc34)cs2)cc(OC)c1OC the resistance index was 0.5 (PC-3/TxR paclitaxel-resistant; relative to: IC50 PC-3/TxR over IC50 PC-3).
The toxicity of CC(=O)c1nn(-c2ccc(Cl)cc2)/c(=N/N=C(\C)c2ccc(NC(=O)c3ccccc3)cc2)s1 is reported as 97.1% and 96.6% (HepG2; 2.5 µM).
The EC50 of CCn1cc(-c2cc(Cn3ccoc3=N)cc3c2CCN([C@@H](C)c2cc(OC)ccn2)C3=O)c(C(F)(F)F)n1 is reported as 0.25 µM (SNU1; cell growth, inhibitor; 120 h).
The normalised current of C=CC[C@@H]1c2ccc(OC)c(OC)c2CN2CCc3cc4c(cc3[C@H]12)OCO4 is reported as 0.6 and 0.777 and 0.584 (HEK293 transfected; ATP-evoked current, whole-cell patch clamp; 30 µM, mutant Y295A).
The selectivity index of COc1c(C)c(OC)c(C(=O)/C=C/c2ccccc2)c(OC)c1C is reported as 1.49 (SH-SY5Y; SRB; relative to: normal over SH-SY5Y IC50).
The GI50 of Cc1c(C(=O)O)ccc2c3n(nc12)[C@@H]1[C@H](C3)N(CC2CC2)[C@@]2(C(=O)Nc3cc(Cl)ccc32)[C@H]1c1cccc(Cl)c1F is reported as 0.00072 µM (LS180; cell growth, alamarBlue; unbound).
The selectivity index of CCCCCCCC(=O)Oc1c(C)c(O)c(C(=O)/C=C/c2ccccc2)c(OC)c1C is reported as 1.39 (SH-SY5Y; SRB; relative to: normal over SH-SY5Y IC50).
With CCCCCN1C[C@H](O)[C@@H](O)[C@H](O)[C@@H]1CO the IC50 was 0.794 µM (Sandhoff disease patient fibroblasts; glycosphingolipid lowering, LC-MS/MS, measured: GM3 d18:1/22:0).
For Cc1cc(Nc2ncc(Cl)c(Nc3ccccc3S(=O)(=O)C(C)C)n2)c(OC(C)C)cc1C1CCNCC1, “log2 fold change” read -4.11 (CLB-BAR; phosphoproteomics LC-MS/MS, measured: FRS2 phosphorylation; 200 nM, 60 min; relative to: untreated).

For quick reference, copied from above:
The selectivity index of COc1c(C)c(OC)c(C(=O)/C=C/c2ccccc2)c(OC)c1C is reported as 1.49 (SH-SY5Y; SRB; relative to: normal over SH-SY5Y IC50).
The GI50 of Cc1c(C(=O)O)ccc2c3n(nc12)[C@@H]1[C@H](C3)N(CC2CC2)[C@@]2(C(=O)Nc3cc(Cl)ccc32)[C@H]1c1cccc(Cl)c1F is reported as 0.00072 µM (LS180; cell growth, alamarBlue; unbound).
The selectivity index of CCCCCCCC(=O)Oc1c(C)c(O)c(C(=O)/C=C/c2ccccc2)c(OC)c1C is reported as 1.39 (SH-SY5Y; SRB; relative to: normal over SH-SY5Y IC50).
